Published values gathered from unrelated publications.
Each numbered part is a random draw from the data of one study; scales do not carry over between parts.

Set 1
Target: Histone acetyltransferase KAT6A, both winged helices, GST fusion (KAT6A, Homo sapiens, UniProt Q92794, residues 1-181)
Method: protein binding microarray
Form: double-stranded DNA, one strand shown
Medium: in vitro
Concentration: not given
Notes: 8-mer, flanks averaged, mean of 2 arrays, mostly near background
Baseline: not given
Reading: higher = stronger binding
Construct (chain): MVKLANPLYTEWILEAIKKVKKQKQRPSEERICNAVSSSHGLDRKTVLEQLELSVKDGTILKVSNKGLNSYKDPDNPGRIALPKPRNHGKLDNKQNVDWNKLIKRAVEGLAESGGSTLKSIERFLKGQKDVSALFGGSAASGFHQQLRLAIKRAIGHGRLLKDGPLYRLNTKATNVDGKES
| Strand | E-score |
| --- | --- |
| CCATGTTA | -0.0708 |
| AAAATTAG | -0.03 |
| AGATCTCG | -0.0162 |
| GACCACCC | -0.158 |
| AAAAGTTG | -0.107 |
| AGTATTGG | -0.192 |
| CTCCTCAG | -0.195 |
| AGTGCTCG | -0.142 |
| GAATCGCC | 0.119 |
| ACGAATAA | -0.0329 |
| AATTTGAG | -0.195 |
| CTGAAGCC | 0.0323 |
| GAAGTGGC | -0.134 |
| CCTTTGCG | 0.128 |
| CTCGACAC | 0.0402 |
| CGTAATGA | 0.0727 |
| GGCATTCA | 0.0381 |
| ACTTGACT | -0.273 |
| ACCGAGGG | -0.0924 |
| GAGCTGAC | -0.056 |
| CTGCCCAA | -0.218 |
| ACCTATCC | -0.103 |
| GCATGTCC | 0.0441 |
| CAGTAACG | 0.0691 |
| AATGAGTG | -0.17 |

Set 2
Target: Interferon regulatory factor 3, full length, phosphomimetic (IRF3, Homo sapiens, UniProt Q14653, residues 1-427, S386D/S396D/S398D/S402D/T404D/S405D)
Method: protein-binding microarray
Form: double-stranded DNA, one strand shown
Medium: in vitro
Concentration: 2540 nM top
Notes: 60-bp whole probe
With: salmon DNA 0.4 mg/ml
Baseline: random background probes
Reading: higher = stronger binding
Shared flanks, not repeated: GCCTAGCAC … GTCTTGATTCGCTTGACGCTGCTG
Residues (chain): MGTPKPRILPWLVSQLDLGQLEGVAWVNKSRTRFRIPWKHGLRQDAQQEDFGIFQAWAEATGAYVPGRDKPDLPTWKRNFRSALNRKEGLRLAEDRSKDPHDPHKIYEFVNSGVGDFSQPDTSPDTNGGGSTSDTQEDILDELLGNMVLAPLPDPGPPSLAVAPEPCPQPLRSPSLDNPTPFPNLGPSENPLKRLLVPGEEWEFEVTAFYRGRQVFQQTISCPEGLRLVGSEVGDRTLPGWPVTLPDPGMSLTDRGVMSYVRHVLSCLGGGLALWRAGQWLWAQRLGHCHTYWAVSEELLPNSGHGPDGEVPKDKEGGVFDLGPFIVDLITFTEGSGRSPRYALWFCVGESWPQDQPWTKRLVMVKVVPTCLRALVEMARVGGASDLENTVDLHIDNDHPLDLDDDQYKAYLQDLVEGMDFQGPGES
| Strand | fitted relative affinity [z-score] |
| --- | --- |
| GAATGTGTCTTAAATAGGAGAGTGCTA | 0.556 |
| TCAAATTTCCCACTTTCACTGTGCTAG | 2.52 |
| TTCATTTACATTTCCAATACGTGCTAG | 2.29 |
| GACGGTTCCCTTTTCCTGCCGTGCTAG | 5.82 |
| GACGGTTCCCTCTTCCTGACGTGCTAG | 3.55 |
| GACGGTTTGCTTATCCTGACGTGCTAG | 1.07 |
| GAAGATTCCAGTTTCGAGACGTGCTAG | 3.78 |
| GACGGTTTAGGTCTCGGGACGTGCTAG | 0.906 |
| TTAAGTTTCGGTTTCGGTTAGTGCTAG | 12.1 |
| TAAGAACTGAGTCTCGATTAGTGCTAG | -0.56 |
| ACAAGTTTTTATTTTCTGAAGTGCTAG | 2.65 |
| GACGGACTCGACTATCGGGACGTGCTA | -0.392 |
| GACGACATCAGTATCGAGACGTGCTAG | 0.161 |
| TTAGGTTTCGGGTATCGGTCAGTGCTA | 4.3 |
| TTAGAACTGAGTTCCGATTAGTGCTAG | 1.2 |
| TTAGGTTCCCGTTTCGGTTAGTGCTAG | 5.91 |
| GACGGTCTCCTCCTGCTGACGTGCTAG | 0.702 |
| TTTGGACTGCTTTTCCTTTAGTGCTAG | 0.969 |
| GAATGTGTCTTAAATAGGGCAGTGCTA | 0.496 |
| GACGGTTCCGGTGTCGGGACGTGCTAG | 1.91 |
| GATGAAGATGTAGAACTTTTGTGCTAG | -0.557 |
| GACGAACTGAGCATCGAGACGTGCTAG | -0.201 |
| TCACTTTTCATTTTCTTACTGTGCTAG | 4.45 |
| TCACCTTGGGCTCTAGGACTGTGCTAG | -0.42 |
| TACGATATCAGTATCGAGACGTGCTAG | 1.22 |

Set 3
Target: RNA binding protein fox-1 homolog 2, RRM domain, GST-SBP tag (RBFOX2, Homo sapiens, UniProt O43251-10, residues 100-194)
Method: RNA Bind-n-Seq
Form: RNA
Medium: in vitro
Concentration: 365 nM
Notes: natural RNA segment, single round, ends assumed
Baseline: no-protein control
Reading: higher = stronger binding
Shared flanks, not repeated: GGGAGUUCUACAGUCCGACGAUC … UGGAAUUCUCGGGUGCCAA
Residues (chain): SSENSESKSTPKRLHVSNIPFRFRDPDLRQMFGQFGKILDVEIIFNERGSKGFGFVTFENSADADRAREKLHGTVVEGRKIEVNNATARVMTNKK
| Strand | RBNS enrichment (R) |
| --- | --- |
| CAUUGUAAUGCCCACCAACAUCCCAUCAAAGACAUAUAAUGUGCUGUAGUCCACAUUUUAACACUCAGCAAACAUUCACACAUUCUAAGUUCAACAGGGCUCUUUGAUGA | 0.597 |
| UAGCGCAGAAUGUUUUCUUGCAGAGCCUAGAGUACUUUGUUAAUGUUCUUCCGUUUGCUGCAACGAUGUCCUUGGAAAAAGAUAGAAUGGAAAUUAUUUUUCCAAAAUAA | 5.18 |
| AUAUGUAAUUUGUAUUGUUGUAUAGUUUUAUUGAUUACACUGAUUUAUUCUACCCUAUUUUAUAAUGCAGGACUUUUGUAAUGUUGUUUAAAUGAGGAAAAAUUUCUGUC | 0.343 |
| GCCCACCAUUAACUCAUUCAUGUAGUUUAUUCAAGUGAUUUAUGUAUUUAAACUAAAUAUUGAAAAUGUUAGUCAAAUUGUGGUUUGCUUGUCAGGUAUUUAUAUCAGUC | 0.607 |
| AAGUGACUUUCUGUCUGCGGCUGCUCCACAUCCCGGGCCUGCUUUUCAAGGGUAUCUGUUCUGAUACUGAAGGGAGAGUAUGCAUCUAAAAACAGCACUGUUCCCCAAGG | 0.411 |
| CUAUUUGGUAUGAAGUAGCAAAGCUACCUAGGAAGGUUAAAAAAUUAUGUACAUCAAAGAUAUCCUAGAUGUAGAGACGAUGGUGUCUGGGAUAAAAGGCAGAGUUAGUU | 1.46 |
| UCCUGCCCCUUCACCUUGACCCGGGUUCCCCCACUCCCAUUCCCUGGCCUCUGCCAUAAUUUGUUGUUCAACUGCUCCCUCCUUCCUGAGGGGCCUCAGGGCUUGUGGGG | 0.873 |
| GAUGGACCCGGCCCAUCCCUGGGGACGUGCUGGCGUGGCAGGUCCAGAGAGCUGCACCCUGCACGGGGCACCGCACCGCUUCCCUCCGCGCAGCUCUUCUGCCUGGUUUU | 0.957 |
| GGCUGGAGAGGUGGCUCAGUGGUUAAAGGCACUCACUGCUCUUUCCAAAGGACCUGGUUUGAUUCCCAGCACUCACACGGAGGCUCACUGACCACCUGUAACUCCUGUUC | 0.349 |
| GAGACAUCUCCUUCCACCAUUCCCCACUUCUGCCACCUGCUGCUCUUCUCUGUCCUUAGUUGUGAGCUUCUCCAUGCUGUGCCAAUGGCUAGCCUUUUCUACACCCUCUU | 1.32 |
| AUUUUUCUCUACUUACAUGUAUUCCUGUGAAUAAAUCCUUGUUAAGUUAACCCUUUACUUUUCCUUCCAUGUGUAUUUUCUUAUAUACUGUGAAUGUGAAAACCUAACUG | 0.295 |
| UUGACAUCUGCCUUUAAGACUUGGCUGAGUGUCUCAUUAGUUUAUCAUCACAGAUACGCAGUGUUAUGCAUGUGUAUAGAAGUGUGUGCACCAGCAUCAAACAUUGUGUG | 0.864 |

Set 4
Target: RING finger protein unkempt homolog, zinc fingers 1-6, SBP tag (UNK, Homo sapiens, UniProt Q9C0B0, residues 30-357)
UniProt Q9C0B0, sequence (30-357, looked up): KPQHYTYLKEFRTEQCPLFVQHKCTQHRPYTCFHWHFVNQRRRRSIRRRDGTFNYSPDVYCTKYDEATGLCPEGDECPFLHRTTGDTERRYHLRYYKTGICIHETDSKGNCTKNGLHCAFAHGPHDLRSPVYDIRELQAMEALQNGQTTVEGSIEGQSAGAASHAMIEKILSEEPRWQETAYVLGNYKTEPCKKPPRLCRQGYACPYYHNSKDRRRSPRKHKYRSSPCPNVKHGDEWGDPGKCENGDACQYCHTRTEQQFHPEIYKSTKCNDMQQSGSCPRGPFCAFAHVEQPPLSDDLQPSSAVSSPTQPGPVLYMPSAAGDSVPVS
Method: RNA Bind-n-Seq
Form: RNA
Medium: in vitro
Concentration: 100 nM
Notes: RNA with constant flanks, vertebrate orthologous sites, ends assumed
Baseline: input RNA pool
Reading: higher = stronger binding
Shared flanks, not repeated: GGGAGUUCUACAGUCCGACGAUC … CAACAGAGGAUUGAGCAUCA
| Strand | bound/input enrichment [ratio] |
| --- | --- |
| CACUGACAGAUGAGCCACUCACGUCUGCCCGCGUGUGACGGAGGCAGCACUUGCCAGCCUGCAGGGUGGCUGCGGUACUUUUUCUGCUUCAGAGUCCCCAAAGCCUUCAAGCAGCGGGAC | 0.319 |
| CUCCCCUUAAUCCCAUCUCAUCUGUUUCAUAGUGCUGAAAUUCUGUCUUCAGCCUUAUUUUUAGCGAACUUAUUCUAAUUCUAGUGAAACUUCCAGUGUGGAUACUGUGAGCUAUAUGGA | 1.98 |
| AAGAACAGGAGCAGCAUAGACUGAGCUUUGGGGAAAUGAGCUUUGCUUUUUAUAUUUCAAUAGGAUACUUUUAUAUGAUGGGUGCUUUGAGUGUGAAUGCAGCAGGCUCUCCAUUUCAGA | 1.39 |
| ACCCCCUCCCUGGUGAGAGGGAGUGGGGGGAGCUCAGGAUGACCCUCAGCUGUUCCAAUCCAGUAUUUUUUUUUCUUUUUCAAAAUUACUGUAUUUAUUAUGACGAUGGUGACUCCCCGG | 0.703 |
| AUAACGUGUUUCUAUUUGUUGAGGAUAAUUUUGUGAUAAGCUUGUGUUAGAGUUAAAAAUUAGUGAAUUAAUUCCUCUUCAUUGUGUUGCUUUUGUUAUUGAAAAUAAAUGGAACUUUGU | 0.316 |
| CUCUUUCCUAGGUUGGACCUACUGGAAAAGUCAUAGGAAUUGAUCACAUUAAGGAGUUGGUAGACGACUCAAUAAAUAACGUCAGAAAGGAUGACCCAAUGCUUUUGUCUUCAGGGAGGG | 0.437 |
| UUCGCUGAGCGACAGCCUGCCGUCGGUGGCGGAGUCGCACUCGAGCCAUUUUUCCGAGUUCAGCUGCUCGGACCUGGAGAGCAUGAAGACUUCCUGCAGUCACGGGUCCAGUGACUACCA | 0.217 |
| UUCAUUGUACUGCAGAAAUCAUCCUUCAUCUGGACUAGCCACAGUAAUCACUGUCUCUACUAGUAGAGUCAUUUACUAUUACCUUUGAAAUCAUCUGUUUUGUCAGAUAUCUGAAAAUGU | 0.587 |
| CGUGCUUAUGCUCUUCUAUGAGAGAGAUGAAUUGGGGAGAACUGUCUCCGUUUUAUAGAUUAAUUUCUUUCUAAAUUAUGACCAAAAAUAUUUUGCUAUUUCUUUCUUUGUAUAUGGACA | 0.565 |
| GUCGGAGCUACAUUUAGAGUGGAUUCUUCCUCACUUCCUCCAUGAAGAAAAAAGCCAGAGCACCUUCCUUACAGACUUGAUUUUGCCACUUUUGUUUCCUACAUUCACAUGUCUGUCACC | 0.818 |
| UGUCGGGGGAGCCGGCGGAGUGGCGCUCUCCUCUCACUGUCCUUUCCUGGCUUCGCUUUUCUCGGGCGGGCCUGGGGUUGUGGCGCCCACUGACCCUGAGGCACGAGCUCUUGUGGUUCA | 0.163 |
